{"data": "Published values of several laboratories", "note": "Every numbered part comes from another study and shows a few of its results, in no order. Changes are numbered by the printed parent chain."}
{"data": "Study 1", "target": "ABI1, truncated, D143A, DHFR fusion (Arabidopsis thaliana)", "technique": "DHFR PCA, deep sequencing", "medium": "yeast", "notes": "methotrexate growth selection, single substitutions", "together with": "(+)-ABA 710 µM", "baseline": "wild-type fitted maximum", "direction": "higher = stronger binding", "parent": "PYL1, truncated, DHFR fusion (Arabidopsis thaliana); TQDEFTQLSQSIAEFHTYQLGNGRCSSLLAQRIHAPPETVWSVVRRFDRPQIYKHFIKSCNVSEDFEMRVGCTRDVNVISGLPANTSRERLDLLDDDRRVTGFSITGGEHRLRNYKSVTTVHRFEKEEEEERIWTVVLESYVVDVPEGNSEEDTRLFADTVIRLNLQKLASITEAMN"}
{"Substitution": "L156P", "relative binding score [%]": -6.58}
{"Substitution": "G81K", "relative binding score [%]": 67.1}
{"Substitution": "I162G", "relative binding score [%]": 33.2}
{"Substitution": "S59H", "relative binding score [%]": 93.6}
{"Substitution": "V40A", "relative binding score [%]": 73.7}
{"Substitution": "V121G", "relative binding score [%]": 9.71}
{"Substitution": "R90T", "relative binding score [%]": 97.5}
{"Substitution": "V121F", "relative binding score [%]": 10.2}
{"data": "Study 2", "Molecule": "PhoQ, residues 284 288 289 292 302 303 ALASRC", "technique": "Sort-seq", "refers to": "YFP reporter", "medium": "E. coli", "notes": "PhoQ-PhoP variant library", "together with": "10 µM Mg2+", "baseline": "high Mg2+ state", "direction": "higher = stronger signaling"}
{"target": "PhoP, residues 12 14 15 18 19 TQCLL (Escherichia coli, UniProt P23836)", "fold induction": 5.26}
{"target": "PhoP, residues 12 14 15 18 19 VHTVL (Escherichia coli, UniProt P23836)", "fold induction": 7.48}
{"target": "PhoP, residues 12 14 15 18 19 ICWRQ (Escherichia coli, UniProt P23836)", "fold induction": 8.41}
{"data": "Study 3", "target": "CCNA2, cyclin fold, Cln2 fusion (human)", "technique": "yeast growth competition, sequencing", "medium": "yeast", "notes": "strong parent motif", "baseline": "not given", "direction": "higher = stronger binding", "parent": "INSM1 docking peptide (human); PKAIRKLHFEDEV; partner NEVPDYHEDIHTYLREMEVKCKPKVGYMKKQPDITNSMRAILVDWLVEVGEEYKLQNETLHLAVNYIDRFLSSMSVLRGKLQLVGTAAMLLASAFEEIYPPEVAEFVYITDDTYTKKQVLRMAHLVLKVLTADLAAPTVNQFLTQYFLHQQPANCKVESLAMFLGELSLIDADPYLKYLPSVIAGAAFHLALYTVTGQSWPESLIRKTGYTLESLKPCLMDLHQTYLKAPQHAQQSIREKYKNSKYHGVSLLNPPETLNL"}
{"Substitution": "PKAIRKLNFEDEV [H8N]", "normalised enrichment score": 5.61}
{"Substitution": "PKAWRKLHFEDEV [I4W]", "normalised enrichment score": 5.96}
{"Substitution": "PKAIRKLKFEDEV [H8K]", "normalised enrichment score": 5.27}
{"Substitution": "PKAIRGLHFEDEV [K6G]", "normalised enrichment score": 1.7}
{"Substitution": "PKAIRKLQFEDEV [H8Q]", "normalised enrichment score": 5.35}
{"Substitution": "PKAIRKLMFEDEV [H8M]", "normalised enrichment score": 5.33}
{"Substitution": "PKAIRKLHFADEV [E10A]", "normalised enrichment score": 4.89}
{"Substitution": "PKAIRKLHFEDMV [E12M]", "normalised enrichment score": 5.96}
{"data": "Study 4", "target": "Sal-like protein 4, full length isoform B (SALL4, Homo sapiens, UniProt Q9UJQ4-2, residues 1-616)", "technique": "universal PBM", "molecule type": "double-stranded DNA, one strand shown", "medium": "in vitro", "concentration": "not given", "notes": "8-mer, flanks averaged, mean of replicates", "direction": "higher = stronger binding"}
{"Sequence": "ACACATTC", "E-score": 0.131}
{"Sequence": "AGTACGTC", "E-score": 0.0502}
{"Sequence": "CATGAGTC", "E-score": 0.0942}
{"Sequence": "CTGCGTGA", "E-score": -0.0895}
{"Sequence": "ATCGGTCC", "E-score": -0.285}
{"Sequence": "GAAAAGTC", "E-score": 0.0203}
{"Sequence": "CGAGTGTC", "E-score": -0.249}
{"Sequence": "ACTGTTAA", "E-score": 0.18}
{"Sequence": "AGACCAGA", "E-score": 0.125}
{"Sequence": "CGTTTCAC", "E-score": -0.0788}
{"Sequence": "TGGCGCAA", "E-score": -0.0587}
{"Sequence": "ACATCACT", "E-score": 0.186}
{"Sequence": "AAACCAAT", "E-score": 0.232}
{"Sequence": "AGAACGCA", "E-score": -0.00317}
{"Sequence": "CTTGTAGA", "E-score": -0.0667}
{"Sequence": "CAGCCAGA", "E-score": -0.16}
{"Sequence": "ACGAACAA", "E-score": 0.264}
{"Sequence": "CCGCAAAC", "E-score": -0.0907}
{"note": "For quick reference, copied from above (study 4):"}
{"Sequence": "CTGCGTGA", "E-score": -0.0895}
{"Sequence": "ATCGGTCC", "E-score": -0.285}
{"Sequence": "GAAAAGTC", "E-score": 0.0203}
